Measured values from different studies.
Parts stem from different laboratories: compare values within a part only. Positions count from the first letter of the parent shown.

Series 1 — method: RNA Bind-n-Seq; molecule type: RNA; matrix: in vitro; concentration: 20 nM; notes: 6-mer, flanks averaged, single round; added: 150 mM LiCl; baseline: input library; direction: higher = stronger binding; endpoint: 6-mer enrichment (R)
Target: TAR DNA-binding protein 43, full length, His tag (TARDBP, Homo sapiens, UniProt Q13148, residues 1-414)
CGCUUG: 0.922
AGAGCG: 1
CGACGG: 0.879
GAUACG: 0.888
GGGGGG: 1.8
UCUGCG: 0.926
AGAAUU: 0.942
CGUCUU: 0.941
GUGUCC: 1.09
CUAGUU: 0.928
AGGGUA: 1.06
CAUCUG: 0.815
GUGCCU: 1.09
GCGAGG: 1.15
CAACAU: 0.842
AUGUGC: 1.13
GCUUCA: 0.872
AGUCAC: 0.823
UCUAUG: 0.924
UAAACC: 0.854

Series 2 — method: RNA Bind-n-Seq; molecule type: RNA; matrix: in vitro; concentration: 365 nM; baseline: no-protein control; direction: higher = stronger binding; endpoint: RBNS enrichment (R)
Target: RNA binding protein fox-1 homolog 2, RRM domain, GST-SBP tag (RBFOX2, Homo sapiens, UniProt O43251-10, residues 100-194)
Notes: natural RNA segment, single round, ends assumed
All sequences stand within: GGGAGUUCUACAGUCCGACGAUC … UGGAAUUCUCGGGUGCCAA
Target sequence (chain): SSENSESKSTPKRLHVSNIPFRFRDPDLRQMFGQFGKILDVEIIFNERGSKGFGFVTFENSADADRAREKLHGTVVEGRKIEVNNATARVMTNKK
UGGAAUUCCUGGGGGGGUCUUUAAUUCUGGCUCCUUCCUUCCUCAGAACAUCUCUAUUCUGCAAGACCCCUCUGCCAUGCCAGGGCACGCCCAUUCCAGCUGGAGUCGUG: 2.53
UGGGCCACGCCUGGGAGGGGCCCAGCUGGGGUUACUGGCCCCGCAUGAGCCUCGGCCAUCUCUCCCUCCUGCCCUCUGCUUGGGGGACUCAGGGCUCCAUUCUGGAGGGC: 1.04
GCUGCUUGAUUACAAGUGCCAGGAAAACGACUGUUAUCCACUGCGUACUACAUGUUACAUGCUGCAUACUGUAUGUUACACACUGCAUACUAUGUGUUAUACACUGCAUA: 0.606
GCCUUUUCUGCCAGGCAGUCACCAUGCUUCCCUACCCCAGCCUGUUUCUUUUGGCUUGGUUUGGACCACAGUCCUCUGCUACCCAGGGUUUUAGAGCCCCUGCUCUAGGA: 0.851
UCACAGACCUCAGUCAUGUGAUAAGCUAUGUUAUGGUUCUUUAUCUGUUUAAAAUAUGGAAUCUUCACUCCCGCUGCCUCUGUUUCUUGGACUCCAUGACGAUUUCAGAA: 0.345
AGGGACAAGAAUCAAUGGAUAAGCGUGGGUGGAGGAAGAUCCAAACAGAAAAGUGCAAAGUUAUUCCCCAUCUUCCAAGGGUUGAAUUCUGGAGGAAGAAGACACAUUCC: 0.58
AGAGGGGCCUAUAGGUCCUUCACUGUUCCCUCCUGUGUGUUGGAGUUCUUUAGUUAGCAGUUCAGGCUGGUUGGACAGGUUUGAAUCAAAUUGUACUUUGUUCCAUUGUU: 1.09
UACAGCUGGAGGGUCAGGAACUGUUACCUUCCUUCCCCUUGGCAUUAAUAAAUUUAAGUUAAUCCUUUCCAUUCUUCCUAUGUUCUGUUUCCUUAAACACAAUAUAAGUA: 0.262

Series 3 — target: CCNF, cyclin fold, Cln2 fusion (human); method: yeast growth competition, sequencing; matrix: yeast; notes: strong parent motif; baseline: not given; direction: higher = stronger binding; endpoint: normalised enrichment score
Starting sequence: E2F1 docking peptide (human); PPVKRRLDFETDH; partner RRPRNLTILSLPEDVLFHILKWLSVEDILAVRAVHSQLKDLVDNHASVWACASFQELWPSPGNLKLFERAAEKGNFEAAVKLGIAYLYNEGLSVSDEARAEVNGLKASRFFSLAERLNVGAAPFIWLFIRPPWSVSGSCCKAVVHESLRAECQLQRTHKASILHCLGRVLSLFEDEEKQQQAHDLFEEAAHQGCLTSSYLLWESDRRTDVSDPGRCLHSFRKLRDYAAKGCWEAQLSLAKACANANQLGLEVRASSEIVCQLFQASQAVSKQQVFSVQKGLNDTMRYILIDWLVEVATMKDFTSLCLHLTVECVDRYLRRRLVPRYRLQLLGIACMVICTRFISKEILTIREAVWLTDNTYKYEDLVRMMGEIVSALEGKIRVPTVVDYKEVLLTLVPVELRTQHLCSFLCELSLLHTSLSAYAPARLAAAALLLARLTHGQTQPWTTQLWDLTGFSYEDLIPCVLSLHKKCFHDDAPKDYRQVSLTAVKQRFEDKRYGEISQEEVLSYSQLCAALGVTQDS
PPLKRRLDFETDH [V3L]: 5.91
PPVKRRLDFETQH [D12Q]: 7.64
PPVKRRLAFETDH [D8A]: 8.01
PPVKRRLDFERDH [T11R]: 7.54
PPVKRRLDFETWH [D12W]: 8.32
PPVKRRLDFLTDH [E10L]: 8.18
PPVKRALDFETDH [R6A]: 7.03
PIVKRRLDFETDH [P2I]: 7.81
PPVKRRLDFECDH [T11C]: 7.3
PPVKRMLDFETDH [R6M]: 7.2
PPVKRRLDFEPDH [T11P]: 7.66
PPCKRRLDFETDH [V3C]: 6.76
PPVKRDLDFETDH [R6D]: 0.308
PPVCRRLDFETDH [K4C]: 6.65
PPVWRRLDFETDH [K4W]: 7.2
PPVKRTLDFETDH [R6T]: 6.8

Series 4 — method: protein binding microarray; molecule type: double-stranded DNA, one strand shown; matrix: in vitro; concentration: not given; baseline: not given; direction: higher = stronger binding; endpoint: E-score
Target: Histone acetyltransferase KAT6A, winged helix 2, GST fusion (KAT6A, Homo sapiens, UniProt Q92794, residues 85-181)
Notes: 8-mer, flanks averaged, mean of 2 arrays, mostly near background
Residues (chain): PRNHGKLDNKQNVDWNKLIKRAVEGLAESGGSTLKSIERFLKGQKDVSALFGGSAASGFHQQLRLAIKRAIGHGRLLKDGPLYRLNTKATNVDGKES
AGATGATC: -0.0255
AACCGAAG: 0.0248
GCCAGAGA: 0.0286
GACATCGC: -0.0756
ATAGATCG: -0.0492
AGCACTCA: -0.0835
AATATCTG: -0.169
GCCTGCCA: 0.0766
GGAACGCA: 0.157
CAATCCAA: 0.00265
AATGACCT: -0.134
CCGCACTA: 0.19
ATCTTATG: 0.00702
TAGCAAAA: 0.0367
AACAAAAG: 0.0601
GTAAGACA: 0.000445
CGCTGGAC: 0.183
CGTTGGCC: 0.00194
ATCAGATG: 0.0887
CGGTAAGC: -0.0152
CCCTCGAA: 0.027
ACTTTAAT: -0.121
ATGACCAA: -0.0964
ATAGGACC: -0.193
ACGACCGG: -0.0815

Series 5 — method: universal PBM; molecule type: double-stranded DNA, one strand shown; matrix: in vitro; concentration: not given; direction: higher = stronger binding; endpoint: E-score
Target: Sal-like protein 4, full length isoform B (SALL4, Homo sapiens, UniProt Q9UJQ4-2, residues 1-616)
Notes: 8-mer, flanks averaged, mean of replicates
Target sequence (chain): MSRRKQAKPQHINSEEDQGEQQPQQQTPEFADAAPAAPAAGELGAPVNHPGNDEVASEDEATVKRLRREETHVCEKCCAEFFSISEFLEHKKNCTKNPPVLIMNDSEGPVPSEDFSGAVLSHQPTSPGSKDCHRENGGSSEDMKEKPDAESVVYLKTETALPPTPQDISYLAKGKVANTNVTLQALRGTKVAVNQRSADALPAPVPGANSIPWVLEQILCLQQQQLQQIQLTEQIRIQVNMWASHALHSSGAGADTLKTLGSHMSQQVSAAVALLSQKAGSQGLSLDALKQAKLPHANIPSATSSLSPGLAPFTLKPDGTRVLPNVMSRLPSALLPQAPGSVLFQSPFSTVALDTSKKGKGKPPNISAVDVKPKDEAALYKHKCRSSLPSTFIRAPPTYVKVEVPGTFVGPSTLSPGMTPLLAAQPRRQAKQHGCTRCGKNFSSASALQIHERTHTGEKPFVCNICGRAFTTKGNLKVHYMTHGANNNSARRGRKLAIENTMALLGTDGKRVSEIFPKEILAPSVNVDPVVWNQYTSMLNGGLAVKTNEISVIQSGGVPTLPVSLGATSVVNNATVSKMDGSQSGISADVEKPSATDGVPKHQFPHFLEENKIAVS
TACTACGA: 0.151
ACACAGAT: 0.145
CGATAACA: 0.119
CAAGAGTA: 0.0499
AGTGCCAA: 0.0644
ATATGGAA: 0.339
AATTGTAC: 0.201
AGCGTTCG: -0.314
TAGGTCCA: -0.0185
AACACTGT: 0.0884
TCCGTAGA: 0.0001
CGCACCCA: -0.302
CATACGGC: -0.0234
CAGCCTCC: -0.308
CAGCGCCC: -0.31
GTCGACAC: 0.0712
ACGAAAAC: 0.153
GTTGACCA: -0.171
AACCTGCA: -0.0963

For quick reference, copied from above (series 4):
AGCACTCA: -0.0835
AATATCTG: -0.169
GCCTGCCA: 0.0766
GGAACGCA: 0.157
CAATCCAA: 0.00265
AATGACCT: -0.134
